Results of several laboratories.
Protocols differ between the studies behind these lines. Values joined by “and” are separate records of one study, mostly repeats; a detail may differ. ± gives the spread as reported.

CC(=CCC(O)C(C)=Cc1csc(C)n1)CC=CC(C)C(O)C(C)C(=O)C(C)(C)C(O)CC(=O)O (stereo not drawn)  AUC (human, plasma; intravenous infusion, 11.3 mg/m2 KOS-1584, 3 h infusion, cycle 1): 204 ± 88.7 ng·h/mL
N=C(N)NCc1ccc(C(=O)NCCCC[C@H](NC(=O)N[C@@H](CCC(=O)O)C(=O)O)C(=O)O)cc1[211At]  tissue uptake (SCID mouse, PC-3 xenografts, thyroid; 1 h): 0.79 ± 0.17 %ID/g
O=C(O)CCn1c(=O)oc2cc(Cl)c(Cl)cc21  steady-state concentration (Sprague-Dawley rat, male, acute pancreatitis, plasma; intravenous, 24 mg/kg bolus then 5.5 mg/kg/h, 1 h): ~600 µM
CCCCCCCCCCCCC(=O)O.O=C1CCCC2C3CCCN4CCCC(CN12)C34 (stereo not drawn)  standard enthalpy of aggregation (electrical conductivity; water; 308.15 K): -0.569 kcal/mol
CC(C)[C@H](NC(=O)CNC(=O)[C@H](CCC(N)=O)NC(=O)[C@H](C)N)C(=O)O  subjects with severe AE (healthy male volunteers; intravenous, 45 mg/kg/h, 2 h, with: LPS 2 ng/kg): 0%
CC(C)[C@H](NC(=O)CNC(=O)[C@H](CCC(N)=O)NC(=O)[C@H](C)N)C(=O)O  drug-related adverse events (human; intravenous infusion, 90 mg/kg/h, 2 h, relatedness Probably; baseline: subjects): 0%
CN[C@](C)(C[18F])C(=O)O  tissue uptake (SCID mouse U87 xenograft, liver; 60 min, post injection): 4.2 ± 1.8 %ID/g
CC[C@@H]1C[C@]1(NC(=O)[C@@H]1C[C@@]2(CN1C(=O)[C@@H](NC(=O)[C@@H](NC(=O)[C@@H]1CCCCN1C(C)C)C1CCCCC1)C(C)(C)C)C(C)(C)C21CCC1)C(=O)NS(=O)(=O)N1CCCC1  subjects with adverse event (measured: Diarrhea; human; oral, 50 mg, with: ritonavir 100 mg): 50%
CSCC[C@@H]1NC(=O)[C@@H]2CSSC[C@H](NC(=O)[C@H](CO)NC(=O)[C@H](C)N)C(=O)N[C@@H](CCCNC(=N)N)C(=O)N[C@@H]([C@@H](C)O)C(=O)N3CCC[C@H]3C(=O)N[C@@H](CCCCN)C(=O)N[C@@H](CC(=O)O)C(=O)N[C@H]3CSSC[C@H](NC(=O)[C@H](CCCCN)NC(=O)[C@H](CCCNC(=N)N)NC(=O)[C@H](CC(N)=O)NC1=O)C(=O)N[C@@H](CCCCN)C(=O)N[C@H]1CSSC[C@H](NC(=O)[C@@H]4CCCN4C(=O)[C@H](CC(=O)O)NC(=O)[C@H](C)NC3=O)C(=O)N[C@@H](C)C(=O)N[C@@H](CCCCN)C(=O)N[C@@H](CCC(=O)O)C(=O)N[C@@H]([C@@H](C)O)C(=O)NCC(=O)N[C@@H](CSSC[C@@H](C(N)=O)NC(=O)[C@H](CCCNC(=N)N)NC(=O)[C@H](CC(N)=O)NC1=O)C(=O)N1CCC[C@H]1C(=O)N[C@@H](Cc1ccc(O)cc1)C(=O)NCC(=O)N[C@@H](CCCCN)C(=O)N2  Creatinine (DA rat pristane-induced arthritis, serum; subcutaneous, 0.1 mg/kg once weekly, 21 days): 0.2 mg/dL
O=c1c2cc(Cl)ccc2sc2c(NCc3ccccc3)nc3ccccc3c12  body weight (BALB/c nude mice; i.p., 10 mg/kg): 21.1 ± 0.35 g
CC[C@H](C)[C@@H]1NC(=O)[C@H](CCCCN)NC(=O)[C@H](CCCCN)NC(=O)[C@H](Cc2ccc(O)cc2)NC(=O)[C@H](CC(C)C)NC(=O)[C@@H]2CCCN2C(=O)[C@H](C)NC(=O)CNC(=O)CNC(=O)[C@H](CO)NC(=O)CNC(=O)CNC(=O)[C@H](CO)NC(=O)[C@H](CCC(=O)O)NC(=O)[C@H](CC(C)C)NC(=O)[C@H](CC(C)C)NC(=O)[C@H](CCCNC(=N)N)NC(=O)[C@H](CCCCN)NC(=O)[C@H]([C@@H](C)CC)NC(=O)[C@H]([C@@H](C)CC)NC(=O)[C@H](CCCCN)NC(=O)[C@H](CCCCN)NC(=O)[C@H](Cc2ccc(O)cc2)NC(=O)[C@H](CC(C)C)NC(=O)[C@@H]2CCCN2C(=O)CNC(=O)CNC(=O)[C@@H](NC(=O)CN)CSSC[C@@H](C(N)=O)NC(=O)[C@H](CC(C)C)NC(=O)[C@H](CCCNC(=N)N)NC(=O)[C@H](CCCCN)NC(=O)[C@H]([C@@H](C)CC)NC1=O  HC10 (hemolysis; uninfected human erythrocytes; 1 h): 50.1 ± 3.9 µM
O=P1(NCCCl)NCCCO1 (stereo not drawn)  AUC(0-inf) (rat, plasma; intravenous, 10 mg/kg CP, with: ketoconazole 10 mg/kg oral 50 min before): 593 ± 160 ng·h/mL
COc1cc(NC(=O)C(=O)c2c(C)n(Cc3ccc(Cl)cc3)c3ccc(C)cc23)ccn1  Vc (cynomolgus monkey, male, plasma; intravenous, 1 mg/kg): 0.48 L/kg and 0.344 L/kg and 0.606 L/kg and 0.453 L/kg and 0.455 L/kg and 0.385 L/kg
CC[C@H](C)[C@@H]1NC(=O)[C@H](CCCCN)NC(=O)[C@H](CCCCN)NC(=O)[C@H](Cc2ccc(O)cc2)NC(=O)[C@H](CC(C)C)NC(=O)[C@@H]2CCCN2C(=O)[C@H](C)NC(=O)CNC(=O)CNC(=O)[C@H](CO)NC(=O)CNC(=O)CNC(=O)[C@H](CO)NC(=O)[C@H](CCC(=O)O)NC(=O)[C@H](CC(C)C)NC(=O)[C@H](CC(C)C)NC(=O)[C@H](CCCCN)NC(=O)[C@H](CCCCN)NC(=O)[C@H]([C@@H](C)CC)NC(=O)[C@H]([C@@H](C)CC)NC(=O)[C@H](CCCCN)NC(=O)[C@H](CCCCN)NC(=O)[C@H](Cc2ccc(O)cc2)NC(=O)[C@H](CC(C)C)NC(=O)[C@@H]2CCCN2C(=O)[C@H](C)NC(=O)CNC(=O)[C@@H](NC(=O)CN)CSSC[C@@H](C(=O)N[C@@H](CCC(=O)O)C(=O)N[C@@H](CO)C(=O)O)NC(=O)[C@H](CC(C)C)NC(=O)[C@H](CCCCN)NC(=O)[C@H](CCCCN)NC(=O)[C@H]([C@@H](C)CC)NC1=O  HC10 (hemolysis; uninfected human erythrocytes; 1 h): > 128 µM
CCN(Cc1ccccc1)C(=O)CCc1nc(CN2CCN(C(=O)Cc3ccc(OC)c(OC)c3)CC2)no1  TD50 (rotarod fatigue test; mouse, chronic constriction injury; intraperitoneal): 88 ± 1.41 mg/kg
C=Cc1c(C)c2cc3nc(c(CC(=O)O)c4[nH]c(cc5nc(cc1[nH]2)C(C)=C5CC)c(C)c4C(=O)O)[C@@H](CCC(=O)NCCCC[C@H](NC(C)=O)C(=O)N[C@@H](Cc1ccccc1)C(=O)N[C@@H](Cc1ccccc1)C(=O)N[C@H](C(=O)N[C@@H](CC(C)C)C(=O)N[C@@H](CCCCN)C(=O)N[C@@H](CO)C(=O)NCC(=O)N[C@@H](CCC(N)=O)C(=O)NCC(=O)N[C@@H](Cc1ccc(O)cc1)C(=O)N[C@@H](CCCNC(=N)N)C(=O)N[C@@H](Cc1c[nH]c2ccccc12)C(=O)N[C@@H](CC(=O)O)C(=O)N[C@@H](CO)C(=O)N[C@@H](Cc1ccc(O)cc1)C(=O)N[C@@H](CCCNC(=N)N)C(=O)N[C@@H](Cc1c[nH]c2ccccc12)C(=O)N[C@@H](Cc1c[nH]cn1)C(=O)N1CCC[C@H]1C(=O)N[C@@H](CO)C(=O)N[C@@H](CS)C(=O)N[C@@H](C)C(=O)N[C@@H](CS)C(=O)NCC(=O)NCC(=O)N[C@@H](CO)C(=O)N[C@@H](CCCCN)C(N)=O)C(C)C)[C@@H]3C  cytotoxicity (CCK-8; HFF, human; 1 to 200 µM, 24 h): not toxic
O=P([O-])([O-])Oc1ccc(-c2cc(=S)ss2)cc1.[Na+].[Na+]  solubility (HPLC; PBS; 1 h, pH 7.4, 25 °C): 1750 µg/mL
CCCCCCCC(=O)OC[C@H](NC(=O)[C@H](CO)NC(=O)CN)C(=O)N[C@@H](Cc1ccccc1)C(=O)N[C@@H](CC(C)C)C(=O)N[C@@H](CO)C(=O)N1CCC[C@H]1C(=O)N[C@@H](CCC(=O)O)C(=O)N[C@@H](Cc1cnc[nH]1)C(=O)N[C@@H](CCC(N)=O)C(=O)N[C@@H](CCCNC(=N)N)C(=O)N[C@H](C(=O)N[C@@H](CCC(N)=O)C(=O)N[C@@H](CCC(N)=O)C(=O)N[C@@H](CCCNC(=N)N)C(=O)N[C@@H](CCCCN)C(=O)N[C@@H](CCC(=O)O)C(=O)N[C@@H](CO)C(=O)N[C@@H](CCCCN)C(=O)N[C@@H](CCCCN)C(=O)N1CCC[C@H]1C(=O)N1CCC[C@H]1C(=O)N[C@@H](C)C(=O)N[C@@H](CCCCN)C(=O)N[C@@H](CC(C)C)C(=O)N[C@@H](CCC(N)=O)C(=O)N1CCC[C@H]1C(=O)N[C@@H](CCCNC(=N)N)C(=O)O)C(C)C  AUC fold change (human, plasma; intravenous infusion, 3 µg/kg/h; baseline: 1 µg/kg/h dose): 4 fold
Cc1ccc(OCC(=O)N(Cc2cccs2)c2ccn[nH]2)cc1  NOAEL (Sprague-Dawley rat, both sexes; oral gavage, 90 consecutive days, highest dose tested): 100 mg/kg/day
CC(C)[C@H](NC(=O)[C@H](Cc1c[nH]c2ccccc12)NC(=O)[C@H](Cc1ccccc1)NC(=O)[C@@H](NC(=O)[C@@H](NC(=O)[C@H](CCCCN)NC(=O)[C@@H](N)CCCCN)C(C)C)C(C)C)C(=O)N[C@@H](CCCCN)C(=O)N[C@@H](Cc1ccccc1)C(=O)N[C@@H](CCCCN)C(N)=O  serum antibody level (ELISA, measured: IgG2a; mouse, serum; iv, 500 µg/kg twice, 5 days): 0.235 ± 0.017 OD490
Cc1ccc(/C=C/C(=O)O)cc1-c1cc2c(cc1C)C(C)(C)CCC2(C)C  LDL level (Sprague-Dawley rat, male, plasma; oral, 100 mg/kg, 9 h, sesame oil vehicle): 8 ± 3 mg/dL
CC[C@H](C)[C@H](NC(=O)[C@@H](CCCCN)NC(=O)[C@H](CCCCN)NC(=O)[C@H](Cc1ccccc1)NC(=O)[C@H](CC(C)C)NC(=O)[C@@H](CCCCN)NC(=O)[C@H](Cc1c[nH]c2ccccc12)NC(=O)[C@H](CCCCN)NC(C)=O)C(=O)NCC(=O)N[C@@H](C)C(=O)N[C@H](C(=O)N[C@@H](CC(C)C)C(=O)N[C@@H](CCCCN)C(=O)N[C@H](CCCCN)C(=O)N[C@@H](CC(C)C)C(N)=O)C(C)C  hemolysis (human red blood cells; up to 64 µM, 1 h, 5% red blood cells): < 5%
CC[C@H](C)C(=O)N1CCC(NC(=O)Nc2ccc(OC(F)(F)F)c(F)c2)CC1  AUC (human, plasma; oral, 24 mg, single dose, healthy volunteers): 6130 ng·h/mL
C#Cc1c(F)ccc2cc(O)cc(-c3ncc4c(N5CC6CCC(C5)N6C(=O)CC(C)CC(=O)OCC)nc(OC[C@@]56CCCN5C[C@H](F)C6)nc4c3F)c12 (stereo partly drawn)  half-life (metabolic stability; mouse, liver microsomes; 1 µM, pH 7.4): 11.1 min
CCCC[C@H]1C(=O)N(C)[C@@H](CCCC)C(=O)N[C@@H](CCCNC(=O)CN2CCN(CC(=O)O)CCN(CC(=O)O)CCN(CC(=O)O)CC2)C(=O)N[C@H](C(=O)NCC(N)=O)CSCC(=O)N[C@@H](Cc2ccc(O)cc2)C(=O)N(C)[C@@H](C)C(=O)N[C@@H](CC(N)=O)C(=O)N2CCC[C@H]2C(=O)N[C@@H](Cc2c[nH]cn2)C(=O)N[C@@H](CC(C)C)C(=O)N(C)CC(=O)N[C@@H](Cc2c[nH]c3ccccc23)C(=O)N[C@@H](CO)C(=O)N[C@@H](Cc2c[nH]c3ccccc23)C(=O)N1C [gallium-68 labelled]  tumour to muscle ratio (static PET; NOD/SCID mice, CHO-hPD-L1 xenograft, CHO-hPD-L1 tumour; intravenous, 1 h post injection, after two atezolizumab treatments, with: atezolizumab 10 mg/kg): 3.5 ± 0.43
C/C=C/C=C/C/C=C/CCCCCCCc1cccc(O)c1O  tissue concentration (female Kunming mice, tumour-bearing, liver; intravenous, 10 mg/kg, 0.083 h): 47200 ± 3690 ng/g
O=C(c1ccc(F)cc1)C1CCN(C2Cc3c(cccc3OCC[18F])CC2O)CC1 (single isomer, unassigned; (-))  tissue uptake (Sprague-Dawley rat, male, striatum; 5 min post-injection): 0.782 %ID/g
CN(C)C(CNC(=O)Nc1cc(C(F)(F)F)ccc1N1CCOCC1)c1ccncc1 (stereo not drawn)  serum direct bilirubin (mouse, serum; intraperitoneal, 240 mg/kg single dose): 0 mg/dL
COC(=O)C[C@](O)(CCCC(C)(C)OC(C)=O)C(=O)O[C@@H]1C(OC)=C[C@]23CCCN2CCc2cc4c(cc2[C@H]13)OCO4  tissue concentration (CD1 mouse, bone marrow; oral, 1 mg/kg, 8 h, below quantification limit 1.00 ng/mL): not detected
[2H]C([2H])([2H])C([2H])([2H])C([2H])([2H])OC(C(=O)OC1CCNCC1)(c1ccccc1)c1ccccc1  adverse drug reactions (measured: rhinorrhea; healthy Japanese male; oral, 15 mg, 16 days, multiple ascending dose): 0%

A few entries again:
CN[C@](C)(C[18F])C(=O)O  tissue uptake (SCID mouse U87 xenograft, liver; 60 min, post injection): 4.2 ± 1.8 %ID/g
[2H]C([2H])([2H])C([2H])([2H])C([2H])([2H])OC(C(=O)OC1CCNCC1)(c1ccccc1)c1ccccc1  adverse drug reactions (measured: rhinorrhea; healthy Japanese male; oral, 15 mg, 16 days, multiple ascending dose): 0%
O=P1(NCCCl)NCCCO1 (stereo not drawn)  AUC(0-inf) (rat, plasma; intravenous, 10 mg/kg CP, with: ketoconazole 10 mg/kg oral 50 min before): 593 ± 160 ng·h/mL
CC(C)[C@H](NC(=O)[C@H](Cc1c[nH]c2ccccc12)NC(=O)[C@H](Cc1ccccc1)NC(=O)[C@@H](NC(=O)[C@@H](NC(=O)[C@H](CCCCN)NC(=O)[C@@H](N)CCCCN)C(C)C)C(C)C)C(=O)N[C@@H](CCCCN)C(=O)N[C@@H](Cc1ccccc1)C(=O)N[C@@H](CCCCN)C(N)=O  serum antibody level (ELISA, measured: IgG2a; mouse, serum; iv, 500 µg/kg twice, 5 days): 0.235 ± 0.017 OD490
